Experimental data collected from several papers.
Each numbered part is a random draw from the data of one study; scales do not carry over between parts.

Block 1
Target: Interferon regulatory factor 7, full length, phosphomimetic (IRF7, Homo sapiens, UniProt Q92985, residues 1-503, S101K/S471D/S472D/S475D/S476D/S477D/S483D/S484D/S487D)
Sequence of UniProt Q92985 (whole entry, unmodified, looked up): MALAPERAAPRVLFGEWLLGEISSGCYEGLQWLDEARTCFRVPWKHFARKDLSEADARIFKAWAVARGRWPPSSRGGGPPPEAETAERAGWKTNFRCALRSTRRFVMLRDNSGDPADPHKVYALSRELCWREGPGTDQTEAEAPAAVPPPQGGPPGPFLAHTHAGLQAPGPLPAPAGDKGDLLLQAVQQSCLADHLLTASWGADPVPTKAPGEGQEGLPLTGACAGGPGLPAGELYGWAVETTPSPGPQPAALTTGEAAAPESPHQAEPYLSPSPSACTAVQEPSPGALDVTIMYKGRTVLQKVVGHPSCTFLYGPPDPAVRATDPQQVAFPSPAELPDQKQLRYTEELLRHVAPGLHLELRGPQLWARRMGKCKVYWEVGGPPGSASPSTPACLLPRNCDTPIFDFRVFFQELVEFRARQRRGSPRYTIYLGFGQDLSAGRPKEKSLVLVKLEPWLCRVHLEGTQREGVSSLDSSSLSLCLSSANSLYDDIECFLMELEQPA
Technique: protein-binding microarray
Molecule type: double-stranded DNA, one strand shown
Matrix: in vitro
Concentration: 250 nM
Setting: 60-bp whole probe
Together with: salmon DNA 0.4 mg/ml
Baseline: random background probes
Reading: higher = stronger binding
Sequence	log fluorescence [z-score]
GCCTAGCACTTAGAACGGAGTATCGATTAGTGCTAGGTCTTGATTCGCTTGACGCTGCTG	0.338
GCCTAGCACTTAGATATCGGGTATCGATTGGTGCTAGTCTTGATTCGCTTGACGCTGCTG	0.797
GCCTAGCACTTAGAACTGGAGACTGGATTAGTGCTAGTCTTGATTCGCTTGACGCTGCTG	-0.559
GCCTAGCACGACGGTATCGACACTGGGGACGTGCTAGTCTTGATTCGCTTGACGCTGCTG	-0.454

Block 2
Target: Histone acetyltransferase KAT6A, winged helix 2, GST fusion (KAT6A, Homo sapiens, UniProt Q92794, residues 85-181)
Technique: protein binding microarray
Molecule type: double-stranded DNA, one strand shown
Matrix: in vitro
Concentration: not given
Setting: 8-mer, flanks averaged, mean of 2 arrays, mostly near background
Baseline: not given
Reading: higher = stronger binding
Construct (chain): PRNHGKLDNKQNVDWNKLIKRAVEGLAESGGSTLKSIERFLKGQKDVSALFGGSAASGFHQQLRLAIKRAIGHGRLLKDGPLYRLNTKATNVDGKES
Sequence	E-score
ATGAGCAT	-0.00691
ACGAGGAA	-0.0675
GGTCCCGA	0.109
GCTCGTTA	0.0299
TATGACGA	-0.0858

Block 3
Target: TATA-box-binding protein 1 (TBP1, Arabidopsis thaliana, UniProt P28147, residues 1-200, full length assumed)
Technique: protein-binding microarray
Molecule type: double-stranded DNA, one strand shown
Matrix: in vitro
Concentration: not given
Setting: k-mer, scored over probes, only values ≥0.25
Reading: higher = stronger binding
Construct (chain): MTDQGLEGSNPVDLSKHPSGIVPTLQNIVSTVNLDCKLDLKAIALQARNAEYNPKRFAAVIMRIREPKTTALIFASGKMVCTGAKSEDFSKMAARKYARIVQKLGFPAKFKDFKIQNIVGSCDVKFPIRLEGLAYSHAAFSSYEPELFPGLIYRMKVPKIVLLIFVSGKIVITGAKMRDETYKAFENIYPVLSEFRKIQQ
Sequence	E-score
ATTAATG	0.345
AGGTATA	0.378
GCTAATA	0.284
AAATAAG	0.344

Other studies, line by line
Molecule	target	test	test system	setting	scale	measurement	value
PhoQ, residues 284 288 289 292 302 303 TVTVVA	PhoP, residues 12 14 15 18 19 TPWLV (Escherichia coli, UniProt P23836)	Sort-seq, item: YFP reporter	E. coli	PhoQ-PhoP variant library, together with: 10 µM Mg2+	baseline: high Mg2+ state, higher = stronger signaling	fold induction	9.39

Repeated from above (block 2):
Sequence	E-score
GGTCCCGA	0.109
ACGAGGAA	-0.0675
